Assay results gathered from unrelated publications.
Each line is one published result; not all experiments were run side by side. “And” joins repeats or separate records; there may be more than shown.
EIF2AK4 S808G C-terminal kinase domain: eIF-2-alpha kinase GCN2, C-terminal kinase domain (EIF2AK4, Homo sapiens, UniProt Q9P2K8, S808G)
EIF2AK4: eIF-2-alpha kinase GCN2 (EIF2AK4, Homo sapiens, UniProt Q9P2K8)
EIF2AK4 S808G: eIF-2-alpha kinase GCN2 (EIF2AK4, Homo sapiens, UniProt Q9P2K8, S808G)

| Structure (SMILES) | target | test | system | conditions | scale | quantity | value |
| --- | --- | --- | --- | --- | --- | --- | --- |
| Nc1ncc2c(n1)-c1c([nH]c3ccc(C4=CCOCC4)cc13)CCC2 | EIF2AK4 S808G C-terminal kinase domain | binding, competition with immobilised ligand | – | 1 µM | – | remaining binding | 78% |
| CCn1cc(C(=O)O)c(=O)c2c(N)c(F)c(NC3CCCCC3)cc21 | EIF2AK4 | kinase activity | – | 0.1 µM, added: ATP at Km | – | inhibition | 14.6% |
| CNC1C[S+]2CC[S+]3CC[S+](C1)[Ru-4]321([N]=C=S)[n]2c3ccc(OC)cc3c3c4c(c5cc(F)c[n+]1c5c32)C(=O)NC4=O (stereo not drawn) | EIF2AK4 S808G | KinomeScan | – | 0.1 µM | relative to: untreated | remaining binding | 91% |
| Cc1cc(NC(=O)[C@H](O)c2cc(F)cc(F)c2)ccc1-c1cnc(N)c(C(=O)NC(C)C)c1 | EIF2AK4 S808G C-terminal kinase domain | binding, competition with immobilised ligand | – | 1 µM | – | remaining binding | 90% |
| CCN1CCN(Cc2ccc(C(=O)Nc3ccc(C)c(NCc4cnc5[nH]ccc5c4OC)c3)cc2C(F)(F)F)CC1 | EIF2AK4 S808G C-terminal kinase domain | binding, competition with immobilised ligand | – | 1 µM | – | remaining binding | 2.8% |
| Cc1cnc2nc1Nc1cccc(c1)COC/C=C/COCc1cc(ccc1OCCN1CCOCC1)N2 | EIF2AK4 S808G | binding | – | 0.1 µM | – | remaining binding | 10% |
| Cc1ccc(-c2c(/C=C(\C#N)C(=O)NC(C)C)n(CCCO)c3ncnc(N)c23)cc1 | EIF2AK4 S808G | binding, competition with immobilised ligand | – | 1 µM | – | remaining binding | 90% |
| Cc1nc2c(F)cc(-c3nc(Nc4ccc(CNC(=O)CCCCCCC(=O)NO)cc4)ncc3F)cc2n1C(C)C | EIF2AK4 | enzyme activity, inhibitor | – | 1 µM | – | inhibition | 72% |
| COc1c(Cl)cccc1Nc1c(-c2ccncc2C#C[C@@]2(C)CCCN2C(=O)/C=C/CN(C)C)[nH]c2c1C(=O)NCC2 | EIF2AK4 S808G | binding, competition with immobilised ligand | – | 3 µM | – | remaining binding | 95% |
| CC(C)=CC1OC(C)(C)C2C=C3C(=O)C(Cl)=CC(O)C3C3C(O)C4OC4C(=O)C132 (stereo not drawn) | EIF2AK4 S808G C-terminal kinase domain | cell-free assay, competition with immobilised ligand | – | 10 µM | – | remaining binding | 90% |
| C=CC(=O)N1CCc2ccc(-n3c(=O)ccc4cnc5ccc(-c6cnn(C)c6)cc5c43)cc21 | EIF2AK4 S808G | KINOMEscan | – | 1 µM | relative to: DMSO control | remaining binding | 96% |
| CNC(=O)C[C@H](Cc1ccc(C#N)cc1)NC(=O)c1cc(-c2ccc(CN[C@H](C)c3ccc(C)cc3)o2)ccc1Cl | EIF2AK4 | enzyme activity, inhibitor | – | 1 µM | – | activity vs control | 102% |
| CN1CC[C@@H](COc2cnc(C#N)cc2-c2ccn3nc(NC(=O)C4CC4)cc3c2)C1 | EIF2AK4 | enzyme activity, inhibitor | – | 1 µM | – | inhibition | 21% |
| N[C@H]1CC[C@H](Nc2nccc(-c3cccnc3Oc3ccc(NC(=O)NC4CC4)c4ccccc34)n2)CC1 | EIF2AK4 | kinobead competition pulldown | HEK293/HCT116 lysate mixture | 10 µM, 1 h, 4 °C | lower = stronger competition | log2 LFQ intensity | 19.7 and 19.4 |
| CCN1CCN(Cc2ccc(NC(=O)c3ccc(C)c(NC(=O)c4cncc(-c5cccs5)c4)c3)cc2C(F)(F)F)CC1 | EIF2AK4 S808G C-terminal kinase domain | binding, competition with immobilised ligand | – | 1 µM | – | remaining binding | 5.8% |
| C=CC(=O)N1CCCC(n2c(=O)c3ncccc3n(Cc3ccc(Oc4ccccc4)cc3)c2=O)C1 (stereo not drawn) | EIF2AK4 S808G | binding, competition with immobilised ligand | – | 1 µM | – | remaining binding | 100% |
| O=C(Cc1ccc(OCc2ccccc2)cc1)NC1(C(=O)O)CCN(C(=O)c2ccc(-c3cccc(Cl)c3)cc2)CC1 | EIF2AK4 | enzyme activity, inhibitor | – | 10 µM | – | activity vs control | 101% |
| CNC(=O)C1CCN(c2cc(C)c(F)cc2NC(=O)c2ccc(-c3cc(O)ccc3C)c(C)c2)CC1 | EIF2AK4 S808G C-terminal kinase domain | binding, competition with immobilised ligand | – | 1 µM | – | remaining binding | 75% |

Excerpt of the above:
| Structure (SMILES) | target | test | system | conditions | scale | quantity | value |
| --- | --- | --- | --- | --- | --- | --- | --- |
| O=C(Cc1ccc(OCc2ccccc2)cc1)NC1(C(=O)O)CCN(C(=O)c2ccc(-c3cccc(Cl)c3)cc2)CC1 | EIF2AK4 | enzyme activity, inhibitor | – | 10 µM | – | activity vs control | 101% |
